# Measured values of several laboratories.
# Numbered parts are unrelated; each lists some results of a single study.

# Block 1 — method: RNA Bind-n-Seq; molecule type: RNA; sample: in vitro; tested at: 1 µM; notes: whole 134-nt RNA, ends assumed; together with: 150 mM KCl; reference: input library; direction: higher = stronger binding
# Target: Ras GTPase-activating protein-binding protein 1, RRM domain (G3BP1, Homo sapiens, UniProt Q13283)
# UniProt Q13283, sequence (whole entry, looked up): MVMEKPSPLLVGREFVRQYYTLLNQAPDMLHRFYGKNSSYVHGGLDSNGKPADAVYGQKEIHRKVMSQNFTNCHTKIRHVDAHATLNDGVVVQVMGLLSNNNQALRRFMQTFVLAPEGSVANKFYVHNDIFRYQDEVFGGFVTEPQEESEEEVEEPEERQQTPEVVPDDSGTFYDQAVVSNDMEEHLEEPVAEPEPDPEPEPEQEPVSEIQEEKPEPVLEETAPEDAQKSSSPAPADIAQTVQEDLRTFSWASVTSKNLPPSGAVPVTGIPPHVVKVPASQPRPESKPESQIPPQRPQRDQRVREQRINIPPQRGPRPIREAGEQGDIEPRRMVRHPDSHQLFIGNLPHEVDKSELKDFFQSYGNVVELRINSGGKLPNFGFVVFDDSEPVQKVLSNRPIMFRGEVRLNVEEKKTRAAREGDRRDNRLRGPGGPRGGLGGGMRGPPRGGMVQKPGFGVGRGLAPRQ
Strand,log2 enrichment
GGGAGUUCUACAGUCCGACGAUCUGGCCCUGGUGGCAUGCGGGGAGGAAGUGGUGGCCUCAUGGAUCGUGGUGGUCCCGGUGGAAUGUUCAGAGGUGGCCGUGGUGGAGACAGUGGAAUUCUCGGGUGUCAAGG,0.698
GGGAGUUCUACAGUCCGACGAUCAAGUCCUGUGCUACACAUCGUAUGUACCGAAUCGGGGUUUUGGUUUUGGUUUUGGGAAAGUAUUAUGUUACGCCGUUCGGAUCUGCACUUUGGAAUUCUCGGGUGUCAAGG,-0.533
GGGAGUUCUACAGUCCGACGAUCUGGGAGGUGGAUUUUGUUUAUUAUUUUAGCUCAUUUCCAGGGGUGGGAAUUUUUUUUUAAUAUGUGUCAUGAAUAAAGUUGUUUUUGAAAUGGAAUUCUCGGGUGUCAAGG,1.45
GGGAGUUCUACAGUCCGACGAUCUCUCUUGCUCAAGUUUUCUCUCACAGAUGACAGCCACCUACCACAUAACAUGACCAGCAAACGGACUGUUCCUAGUCCAGAGGGCCUUGCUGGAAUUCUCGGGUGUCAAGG,0.0618
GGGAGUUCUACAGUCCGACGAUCGUCCUGUGCUACACAUCGUAUGUACCGAAUCGGGUUUUUUUGGGAAAAAAAGGGUGGGAAAGUAUUAUGUUACGCCGUUCGGAUCUGCACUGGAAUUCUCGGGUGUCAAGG,0.0226
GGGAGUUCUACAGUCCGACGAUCUGGGAGGUGGAUUUUGUUUAUUUUUUUAGCUCAUUUCCAGGGGUGGGAAUUUUUUUUUAAUAUGUGUGAUGAAUAAAGUUGUUUUUGAAAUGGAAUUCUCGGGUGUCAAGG,1.24
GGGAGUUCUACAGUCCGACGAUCAAGUCCUGUGCUACACAUCGUAUGUACCGAAUCGGAAAAAAAGGAAAAAAAGGUGGAAAGUAUUAUGUUACGCCGUUCGGAUCUGCACUUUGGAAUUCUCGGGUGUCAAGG,0.044
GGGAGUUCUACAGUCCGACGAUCAAGUCCUGUGCUACACAUCGUAUGUACCGAAUCGGGGUUUGGGGAGGGGUUUGGGGAAAGUAUUAUGUUACGCCGUUCGGAUCUGCACUUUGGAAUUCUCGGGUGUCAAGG,0.845
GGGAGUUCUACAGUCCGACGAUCCUCAAGUCCUGUGCUACACAUCGUAUGUACCGAAUCGGGGCGGGGCGGGCGGGAAAGUAUUAUGUUACGCCGUUCGGAUCUGCACUUCCAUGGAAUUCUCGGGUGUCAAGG,0.492
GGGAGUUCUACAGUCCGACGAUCAAGUCCUGUGCUACACAUCGUAUGUACCGAAUCGGGGCCCGGGCCCGGGGCCCGGGAAAGUAUUAUGUUACGCCGUUCGGAUCUGCACUUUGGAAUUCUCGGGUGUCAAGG,-1

# Block 2 — method: aptamer microarray, sandwich; molecule type: DNA with 2'F-ANA; sample: in vitro; tested at: 200 nM; together with: Cy3 exosite-II aptamer, 400 nM; direction: higher = stronger binding; strand: GGTTGGTGTGGTTGG
# Target: Prothrombin, mature alpha-thrombin (F2, Homo sapiens, UniProt P00734)
# Notes: whole 15-mer aptamer, many near background
Modification,mean fluorescence intensity
2'F-ANA at 4 5 6 7 8 11 15,57.4 a.u.
2'F-ANA at 2 4 5 7 9 11 13 14,47.5 a.u.
2'F-ANA at 1 2 3 4 5 6 8 10 12 13,45.3 a.u.
2'F-ANA at 1 4 5 8 9 10 13,69.6 a.u.
2'F-ANA at 1 2 6 7 8 10 12 13,71.3 a.u.
2'F-ANA at 1 2 3 4 5 7 8 9 11 15,66.2 a.u.
2'F-ANA at 3 4 6 8 13 14 15,247 a.u.
2'F-ANA at 7 13 14,259 a.u.
2'F-ANA at 2 4 5 6 7 8 9 10 14,50.2 a.u.
2'F-ANA at 1 4 8 13 15,117 a.u.
2'F-ANA at 3 5 6 12 13 15,175 a.u.
2'F-ANA at 4 5 6 10 11 13 15,48.9 a.u.
2'F-ANA at 4 6 7 10 11 14 15,59.7 a.u.
2'F-ANA at 1 4 5 9 14,81.5 a.u.
2'F-ANA at 1 3 5 6 7 9 12 15,118 a.u.
2'F-ANA at 4 8 9 11,306 a.u.
2'F-ANA at 1 2 3 4 6 7 8 10 11 15,65.6 a.u.
2'F-ANA at 1 2 4 5 6 8 9 10 12 13,46.7 a.u.
2'F-ANA at 1 2 3 5 8 9 10 12 14 15,49.7 a.u.
2'F-ANA at 5 7 9 10 12 14,44.9 a.u.
2'F-ANA at 1 2 3 7 8 9 10 11 13,67.4 a.u.
2'F-ANA at 3 4 6 7 8 9 12 13 14,267 a.u.
2'F-ANA at 1 3 9 11 13,209 a.u.
2'F-ANA at 3 4 7 8 10 11 12 13 15,286 a.u.
2'F-ANA at 1 5 7 8 9 10 11 12 15,94.3 a.u.

# Block 3 — method: protein-binding microarray; molecule type: double-stranded DNA, one strand shown; sample: in vitro; tested at: 2200 nM top; notes: 60-bp whole probe; together with: salmon DNA 0.4 mg/ml; reference: random background probes; direction: higher = stronger binding; constant ends, left off below: GCCTAGCAC … GTCTTGATTCGCTTGACGCTGCTG
# Target: Interferon regulatory factor 7, full length, phosphomimetic (IRF7, Homo sapiens, UniProt Q92985, residues 1-503, S471D/S472D/S475D/S476D/S477D/S483D/S484D/S487D)
# Residues (chain): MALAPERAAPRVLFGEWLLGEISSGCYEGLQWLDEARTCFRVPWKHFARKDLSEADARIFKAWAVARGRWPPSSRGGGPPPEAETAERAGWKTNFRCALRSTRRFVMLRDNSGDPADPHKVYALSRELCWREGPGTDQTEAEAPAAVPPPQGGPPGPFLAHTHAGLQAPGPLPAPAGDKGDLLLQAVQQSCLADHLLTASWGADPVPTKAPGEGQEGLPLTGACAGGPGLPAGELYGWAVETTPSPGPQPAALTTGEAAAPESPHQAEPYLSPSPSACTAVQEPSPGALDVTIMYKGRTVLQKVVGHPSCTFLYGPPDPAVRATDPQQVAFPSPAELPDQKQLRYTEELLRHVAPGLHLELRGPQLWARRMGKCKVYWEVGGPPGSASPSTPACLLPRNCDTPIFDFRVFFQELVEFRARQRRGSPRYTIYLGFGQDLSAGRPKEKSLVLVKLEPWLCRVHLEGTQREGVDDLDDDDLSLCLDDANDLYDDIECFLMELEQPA
Strand,fitted relative affinity
GACGGTTCCGGGTATCGGGACGTGCTA,0.938 z-score
ACACTTTCCCCTTCCTAGTTGTGCTAG,6.91 z-score
AACAGGAGCAGATGGGAAGTGTGCTAG,-0.539 z-score
GACGATTACGGGTATCGAGACGTGCTA,0.00376 z-score
TCATGTCTGGGATTTTGACTGTGCTAG,0.364 z-score
GACGGACTGCTTCTCCTGATGTGCTAG,0.331 z-score
CCATCTCAGCCTCCCCAAGGGTGCTAG,0.0539 z-score
GACGAACTGGGGGATCGAGACGTGCTA,0.502 z-score
GATGGTTTCGGGACTGGGGACGTGCTA,3.61 z-score
TTAGGACTGGTTCTCGGTTAGTGCTAG,0.635 z-score
GACGGTTTCGGGTATCGGGAGGTGCTA,5.65 z-score
GGACTGTCAGCCACTTTTTGGTGCTAG,0.0349 z-score
GGTCAGTCAGGTCACTTCTGGTGCTAG,-0.528 z-score
TAGACCTAGAAAGAAACCACGTGCTAG,-0.738 z-score
TTAGATCTCAGACTGGAATAGTGCTAG,-0.382 z-score
GACGGACTGAGACTGGAGACGTGCTAG,-0.455 z-score
GACGGACTGGGTCCCGGGACGTGCTAG,-0.911 z-score
TTAGGTCTAGGACTGGGTTAGTGCTAG,-0.548 z-score
GACGGTTTCGACTATCGGGAAGTGCTA,3.17 z-score
TTAGAGATCGGGTTTCGATTAGTGCTA,2.11 z-score
TTAGATATGGGGTTTCGATTAGTGCTA,3.01 z-score
TTAGGTCTCCTTTTCTTTTAGTGCTAG,1.72 z-score
GACAATATCAGTTTCGAGACGTGCTAG,3.79 z-score

# Block 4 — method: protein binding microarray; molecule type: double-stranded DNA, one strand shown; sample: in vitro; tested at: not given; reference: not given; direction: higher = stronger binding
# Target: Histone acetyltransferase KAT6A, winged helix 2, GST fusion (KAT6A, Homo sapiens, UniProt Q92794, residues 85-181)
# Notes: 8-mer, flanks averaged, mean of 2 arrays, mostly near background
# Target sequence (chain): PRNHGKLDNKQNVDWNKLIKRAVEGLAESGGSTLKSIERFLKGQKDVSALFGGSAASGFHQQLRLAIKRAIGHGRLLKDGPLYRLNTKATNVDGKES
Strand,E-score
CCGCGCCA,0.169
CACTAAAC,0.0275
GCGACAAC,0.161
CAGTTAAG,0.0484
AGTCAGAG,0.0339
GTGGTTCA,0.0225
GATTTAAC,-0.0521
CTCCAGAC,0.145
AACAAGGA,0.133
AAAACCTC,0.0798
AACTGCCT,0.0208
CAGTCAAG,-0.00948
GTCTACCA,-0.211
GAGAGGGA,-0.125
AATATGTA,0.0144
TACGGGGA,-0.00717
ATAACTGC,-0.0502
CTCGATAA,0.027

# A few entries again (block 4):
Strand,E-score
GTCTACCA,-0.211
CTCCAGAC,0.145
GAGAGGGA,-0.125
AAAACCTC,0.0798
GTGGTTCA,0.0225
CAGTCAAG,-0.00948
AATATGTA,0.0144
